Experimental data from different studies.
Protocols differ between the studies behind these lines. “And” joins repeats or separate records; there may be more than shown. Numbers after ± are the reported error.

| SMILES | test | system | setting | scale | measurement | result |
| --- | --- | --- | --- | --- | --- | --- |
| NC(=O)[C@@H](CCCCNC(=O)CNC(=O)CCC(=O)NCCc1c[nH]cn1)NC(=O)[C@@H](CCC(=O)O)NC(=O)[C@@H](CCCCNC(=O)CNC(=O)CCC(=O)NCCc1c[nH]cn1)NC(=O)[C@@H](Cc1ccc(O)cc1)NC(=O)CN1CCN(CC(=O)O)CCN(CC(=O)O)CCN(CC(=O)O)CC1 [indium-111 labelled] | SPECT | human CEACAM5 tumour patients | dose not given, 24 h, 25 µg IMP288, with: TF2 75 mg, 1 day interval | – | tumour activity concentration | 9.4 %ID/kg |
| CC(C)c1cnc(-c2cc(Cl)ccc2F)cc1Nc1ccncc1C(=O)NC(CO)CO | measured: hypotension | human patients | oral, dose not given, grade 5 | – | patients with related SAE | 0% |
| NC(=O)[C@@H](Cc1ccccc1)N[11C](=O)OCc1ccccc1 | – | male Wistar rats, plasma | intravenous, 45 min | – | intact tracer | 37% and 36.6% |
| COc1cc(OC)cc(C2=C3C(C)=C(I)C(/C=C/c4cccs4)=[N+]3[B-](F)(F)n3c(/C=C/c4cccs4)c(I)c(C)c32)c1 | – | dichloromethane | – | relative to: methylene blue | fluorescence quantum yield | 0.02 |
| COc1ccc2c(c1)C=C(C(=O)N1C[C@@H](C)O[C@@H](C)C1)Cn1c-2c(C2CCCCC2)c2ccc(C(=O)NS(=O)(=O)N(C)C)cc21 | – | rat, liver | oral, 10 mg/kg, 4 h | – | liver concentration | 33 µM |
| COc1ccc(C=NCCCN(C)CCN(C)CCCN=Cc2ccc(OC)cc2[O-])c([O-])c1.[67Ga+3] | – | rat | intravenous, 2 h | relative to: heart over lung | tissue uptake ratio | 2.6 ± 0.3 |
| C[C@H](NC(=O)COC(=O)[C@H](C)NC(=O)CO)C(=O)O | – | water | pH 5, 25 °C | – | depolymerization half-life | 43.2 h |
| COCCOCCOCCOCCC(=O)NCc1cc(CNC(=O)CCOCCOCCOCCOC)cc(-c2cc3cc4nc(c(-c5ccc(CCC(=O)O)cc5)c5[nH]c(cc6nc(c(OC)c2[nH]3)CC6(C)C)cc5-c2cc(CNC(=O)CCOCCOCCOCCOC)cc(CNC(=O)CCOCCOCCOCCOC)c2)CC4(C)C)c1 | – | water with 5% DMF | room temperature | – | kf^−1 | 34 ns |
| N=C(N)NCCC[C@@H]1NC(=O)[C@H](Cc2c[nH]c3ccccc23)NC(=O)[C@@H](CC2CCCCC2)NC(=O)[C@@H]2CCCN2C(=O)[C@@H](NC(=O)CCc2ccccc2)CCCNC1=O | – | C57BL/6J mice, urine | oral, 1 mg/kg, up to 90 min | – | amount excreted unchanged | 4.2 ± 0.5 ng |
| [2H]C([2H])([2H])NC(=O)c1ccc(N2C(=S)N(c3ccc(C#N)c(C(F)(F)F)c3)C(=O)C2(C)C)cc1F | – | human, male | oral, 80 mg, single dose, fasted | – | Vd/F | 40.3 ± 7.93 L |
| COc1ccc(-c2csc(N/N=C(\C)c3cc(O)cc(O)c3)n2)cc1 | LC-MS/MS | rat plasma | 3.75 ng/mL, freeze-thaw 5 cycles at 20 °C | – | concentration after storage | 3.39 ng/mL |
| Cc1ccc(OCC(=O)O)cc1 | – | Sprague-Dawley rat, male, plasma | oral gavage, 30 mg/kg of parent drug | – | t1/2 | 1.91 h |
| Cn1c(=O)oc2ccc(-c3ccc(CC(C#N)NC(=O)C4CNCCCO4)c(F)c3)cc21 (stereo not drawn) | measured: glucose urine present | human | 40 mg single dose, fasted | – | subjects with TEAE | 16.7% |
| CCCCCCCCCCCCCCCC(=O)OC[C@H]1O[C@@H](n2cc(F)c(N)nc2=O)CS1 | – | rabbit plasma | 1 µM, 90 min, 37 °C | relative to: 0 min | decline | 92% |
| C#CCN(CCCNC(=O)CCCCC[N+]1=C(/C=C/C2=C(Cl)C(=C/C=C3\N(CCCCCC(=O)[O-])c4ccccc4C3(C)C)/CCC2)C(C)(C)c2ccccc21)CCCOc1ccc(Cl)cc1Cl | – | processed mouse plasma | 0.01 µg/mL nominal, 4 h, in autosampler | – | concentration | 9.8 ± 1 ng/mL |
| CCCC[C@H](NC(=O)CNC(=O)CNC(=O)CN1CCN(CC(=O)O)CCN(CC(=O)O)CC1)C(=O)N[C@H]1CC(=O)NCCCC[C@@H](C(N)=O)NC(=O)[C@H](Cc2c[nH]c3ccccc23)NC(=O)[C@H](CCCNC(=N)N)NC(=O)[C@@H](Cc2ccccc2)NC(=O)[C@H](Cc2c[nH]cn2)NC1=O [copper-64 labelled] | – | female C57 mouse, B16/F1 melanoma | intravenous, 0.037 MBq, 24 h | relative to: tumour over liver | uptake ratio | 8.02 |
| Cc1[nH]c(/C=C2\C(=O)Nc3ccc(F)cc32)c(C)c1NC(=O)CCN1CCN(C)CC1 | – | Beagle dog (both sexes), plasma | oral, 3 mg/kg, single dose tablet | – | AUC extrapolated share | 1.96 ± 1.2% |
| O=C(CCc1ccc(CNC(C(=O)OC2CCCC2)C2CCCCC2)cn1)NO (stereo not drawn) | – | human, plasma | oral, 40 mg once daily, day 7, geometric mean | – | AUC(tau) | 251 ng·h/mL |
| O=C(O)C1OC(OC2C(COS(=O)(=O)O)OC(OC3C(C(=O)O)OC(OC4C(COS(=O)(=O)O)OC(OC5C(C(=O)O)OC(OC6C(COS(=O)(=O)O)OC(OC7C(C(=O)O)OC(OC8C(COS(=O)(=O)O)OC(OC9C(C(=O)O)OC(OC%10C(COS(=O)(=O)O)OC(OC%11C(C(=O)O)OC(Oc%12ccc([N+](=O)[O-])cc%12)C(O)C%11O)C(NS(=O)(=O)O)C%10O)C(OS(=O)(=O)O)C9O)C(NS(=O)(=O)O)C8O)C(OS(=O)(=O)O)C7O)C(NS(=O)(=O)O)C6O)C(OS(=O)(=O)O)C5O)C(NS(=O)(=O)O)C4O)C(OS(=O)(=O)O)C3O)C(NS(=O)(=O)O)C2OS(=O)(=O)O)C(O)C(O)C1OC1OC(COS(=O)(=O)O)C(O)C(O)C1NS(=O)(=O)O (stereo not drawn) | – | rats, serum | intravenous, 3600 µg/kg/day for 7 days, day 8 | – | total bilirubin | 0.1 ± 0.01 mg/dL |
| COc1cc(N(C)CCN(C)C)c(NC(=O)CCSCC(NC(C)=O)C(=O)O)cc1Nc1nccc(-c2cn(C3CC3)c3ccccc23)n1 (stereo not drawn) | radio-HPLC | human, feces | 96 to 240 h, sample holds 16.61% dose | relative to: dose | excreted amount | 0.45% |
| Cc1ccc(OCC(=O)N(Cc2cccs2)c2ccn[nH]2)cc1 | – | beagle dog, male, plasma | oral gavage, 30 mg/kg | – | dose-normalised AUC(0-last) | 7.42 ng·h/mL/mg/kg |

| SMILES | test | system | setting | scale | measurement | result |
| --- | --- | --- | --- | --- | --- | --- |
| C=C(C)C(=O)Nc1ccc(-c2c(-c3ccc(Oc4nccc(C)n4)cc3)c3c(N)ncnc3n2C)cc1 | – | beagle dog, plasma | intravenous | – | clearance | 23 mL/min/kg |
| CCc1c2c(nc3ccc(O)cc13)-c1cc3c(c(=O)n1C2)COC(=O)[C@]3(O)CC | – | human patients, plasma | intravenous, 32 mg/m^2 of parent drug | – | AUC(0-inf) | 528 ng·h/mL |
| CC(=O)N[C@H](CC(=O)O)C(=O)N[C@H](Cc1c[nH]c2ccccc12)C(=O)N[C@H](Cc1ccccc1)C(=O)N[C@H](CCCCN)C(=O)N[C@H](C)C(=O)N[C@H](Cc1ccccc1)C(=O)N[C@H](Cc1ccc(O)cc1)C(=O)N[C@H](CC(=O)O)C(=O)N[C@H](CCCCN)C(=O)N[C@@H](C(=O)N[C@H](C)C(=O)N[C@H](CCC(=O)O)C(=O)N[C@H](CCCCN)C(=O)N[C@H](Cc1ccccc1)C(=O)N[C@H](CCCCN)C(=O)N[C@H](CCC(=O)O)C(=O)N[C@H](C)C(=O)N[C@H](Cc1ccccc1)C(N)=O)C(C)C | – | statin-treated high-risk CHD men, plasma | oral, 100 mg daily, day 1, 0 to 2 h, mean, detected subjects only | – | Cmax | 2.84 ng/mL |
| COc1cc(NC(C)=O)c2c(c1O)-c1c(OC)c(OC)cc3c1C(C2)N(C)CC3 (stereo not drawn) | – | rat liver homogenate | 50 µg/mL, time not given, three freeze-thaw cycles | – | remaining compound | 99.6 ± 0.2% |
| [11CH3]c1ccc2nc(C3CCC3)n(-c3ccc4[nH]ncc4c3)c2n1 | radio-HPLC | Sprague-Dawley rat, brain | 10 min | – | intact parent fraction | 98% |
| C[C@H](Oc1cc(-c2cnn(C3CCN(CC[18F])CC3)c2)cnc1N)c1c(Cl)ccc(F)c1Cl | PET imaging | nude mouse, brain | iv, 10 min post injection | – | tracer uptake | 6.5 ± 2.8 %ID/cc |
| CC(C)C1=CC2=CCC3C(C)(C(=O)OCCC[N+](C)(C)C)CCCC3(C)C2CC1 (stereo not drawn) | – | mouse red blood cells | 1 h, 37 °C | – | HC50 | 160 µg/mL |
| NC12CNCCNCC(NCc3ccc(CNC(=O)CCCC(=O)NCc4ccc(-c5nncnn5)cc4)cc3)(CNCCNC1)CNCCNC2.[64Cu+2] | OLINDA dosimetry | brain | 24 h pretargeting interval, with: huA33-TCO pretargeting | – | mean absorbed dose | 0.0364 rad/mCi |
| [2H]C([2H])([2H])Oc1cc2c(cc1OC([2H])([2H])[2H])[C@H]1CC(=O)[C@H](CC(C)(C)O)CN1CC2 | – | healthy human male, plasma | oral, 25 mg, geometric mean | – | AUC(0-inf) metabolite share of plasma radioactivity | 5.1% |
| COc1ccnc(C[S+]([O-])c2nc3cc(-n4cccc4)ccc3[nH]2)c1C (stereo not drawn) | – | male Sprague Dawley rats, plasma | oral, 10 mg/kg ilaprazole racemate | – | Vz/F | 14.5 ± 9 L/kg |
| CN(C)c1cc(CN2CCCCC2)c(O)c2c1C[C@H]1C[C@H]3[C@H](N(C)C)C(O)=C(C(N)=O)C(=O)[C@@]3(O)C(O)=C1C2=O | – | cynomolgus monkey, plasma | intravenous, 5 mg/kg | – | Cmax | 10100 ng/mL |
| N#CCc1cccc(Cl)c1-c1ccc2[nH][11c](=O)[nH]c2c1 | PET | Sprague-Dawley rats, whole brain | – | – | brain uptake | ~0.2 SUV |
| CC1(C)CNC(=O)c2ccccc21 | – | Sprague-Dawley rat, male, plasma | intravenous, 1 mg/kg | – | AUC(0-t) | 937 ± 370 ng·h/mL |
| Cc1ccccc1/N=N/c1ccc(/N=N/c2c(O)ccc3ccccc23)c(C)c1 | – | rat whole blood QC samples | 16.0 µg/L, 12 h, room temperature, short-term stability | – | measured concentration | 16.1 µg/L |
| CC(C)(O)c1ncc([S@](N)(=O)=NC(=O)Nc2c3c(cc4c2CCC4)CCC3)s1 | – | healthy human, fasted | oral, 100 mg single dose, spray-dried dispersion | – | half-life | 9.9 h |
| CC(C)[C@H](NC(=O)[C@@H]1CCCN1C(=O)[C@H](CCCNC(=N)N)NC(=O)[C@H](CS)NC(=O)[C@H](Cc1c[nH]c2ccccc12)NC(=O)[C@H](CCCNC(=N)N)NC(=O)[C@@H](Cc1ccccc1)NC(=O)[C@H](Cc1c[nH]cn1)NC(=O)[C@H](CCC(=O)O)NC(=O)[C@H](CS)NC(=O)[C@H](CS)NC(=O)CNC(=O)[C@@H]1CC(=O)N[C@@H](CCCNC(=N)N)C(=O)NCC(=O)N[C@@H](CC(=O)O)C(=O)N[C@H](Cc2ccc(O)cc2)C(=O)N1)C(N)=O [technetium-99m labelled] | – | C57 mouse, female, B16/F1 melanoma | intravenous, 0.037 MBq, 0.5 h | relative to: tumour over blood | tumour to tissue ratio | 1.86 |
| Cc1c(Cl)c(C)[n+]([O-])c(Cl)c1-c1no[14c](-c2cc(O)c(O)c([N+](=O)[O-])c2)n1 | measured: total radioactivity | human, male, plasma | oral, 100 mg | – | Tlag | 0.5 h |
| C=C(c1ncc(C(=O)O)cn1)c1cc2c(cc1C)C(C)(C)CCC2(C)C | – | Sprague-Dawley rat, male | oral, 100 mg/kg, 12 h, sesame oil vehicle | – | blood cholesterol | 62 ± 4.7 mg/dL |
| C=CC(=O)Nc1cc(Nc2nccc(-c3cn(C4CC4)c4ccccc34)n2)c(OC)cc1N(C)CCNC | radio-HPLC | human male, feces | oral, 110 mg, 96 to 240 h, sample holds 16.61% dose | relative to: dose | excreted amount | 3.8% |
| CCCCCCCCCCC(=O)C(F)F | 19F NMR | chloroform | – | – | hydrate fraction | 0% |
| CCCCCCCCCCCCCNCC(=O)N(CC(=O)N(CCCCN)CC(=O)N(CCN)CC(=O)N(CC(N)=O)CC1CCCO1)CC1CCCO1 (stereo not drawn) | preparative RP-HPLC C18 | water to acetonitrile gradient | 0.05% TFA in eluent | higher = more hydrophobic | acetonitrile at elution | 67.3% |
